Experimental data collected from several papers.
Each line is one published result; not all experiments were run side by side. Several values in a cell are separate wells, animals, samples, runs or records. ± gives the spread as reported.
UniProt O43684, sequence (whole entry, looked up): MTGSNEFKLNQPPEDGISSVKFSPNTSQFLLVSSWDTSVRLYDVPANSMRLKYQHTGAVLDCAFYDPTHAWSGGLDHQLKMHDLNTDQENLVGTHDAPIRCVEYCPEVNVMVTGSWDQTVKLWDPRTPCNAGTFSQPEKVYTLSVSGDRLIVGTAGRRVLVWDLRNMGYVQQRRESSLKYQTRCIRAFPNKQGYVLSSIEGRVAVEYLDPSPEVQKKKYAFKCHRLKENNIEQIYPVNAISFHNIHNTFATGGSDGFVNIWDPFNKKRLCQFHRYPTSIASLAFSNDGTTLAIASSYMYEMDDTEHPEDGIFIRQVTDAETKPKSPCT
UniProt Q8NFJ6, sequence (whole entry, looked up): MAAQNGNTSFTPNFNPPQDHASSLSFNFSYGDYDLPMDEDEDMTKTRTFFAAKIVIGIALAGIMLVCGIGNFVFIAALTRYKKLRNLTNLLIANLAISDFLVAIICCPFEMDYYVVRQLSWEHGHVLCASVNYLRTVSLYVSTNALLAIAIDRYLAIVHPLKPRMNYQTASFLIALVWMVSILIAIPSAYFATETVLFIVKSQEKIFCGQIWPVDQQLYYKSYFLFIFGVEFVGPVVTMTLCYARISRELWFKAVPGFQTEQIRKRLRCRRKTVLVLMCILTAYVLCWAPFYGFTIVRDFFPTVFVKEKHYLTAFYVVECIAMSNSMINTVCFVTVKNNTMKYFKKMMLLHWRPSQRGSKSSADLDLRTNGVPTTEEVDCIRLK
UniProt P08684, sequence (whole entry, looked up): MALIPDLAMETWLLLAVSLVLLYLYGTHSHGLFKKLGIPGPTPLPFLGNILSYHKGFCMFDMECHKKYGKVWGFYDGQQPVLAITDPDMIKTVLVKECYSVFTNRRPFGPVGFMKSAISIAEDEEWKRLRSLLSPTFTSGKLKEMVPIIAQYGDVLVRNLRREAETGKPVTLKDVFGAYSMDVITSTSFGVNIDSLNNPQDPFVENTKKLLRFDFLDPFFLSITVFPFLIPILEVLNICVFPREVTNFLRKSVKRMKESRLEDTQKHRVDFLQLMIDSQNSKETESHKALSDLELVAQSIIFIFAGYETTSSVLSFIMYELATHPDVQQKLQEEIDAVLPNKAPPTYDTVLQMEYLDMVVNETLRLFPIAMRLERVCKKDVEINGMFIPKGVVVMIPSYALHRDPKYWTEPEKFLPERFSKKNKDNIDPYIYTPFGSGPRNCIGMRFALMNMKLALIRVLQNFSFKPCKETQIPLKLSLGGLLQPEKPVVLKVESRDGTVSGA
UniProt O95819, sequence (whole entry, looked up): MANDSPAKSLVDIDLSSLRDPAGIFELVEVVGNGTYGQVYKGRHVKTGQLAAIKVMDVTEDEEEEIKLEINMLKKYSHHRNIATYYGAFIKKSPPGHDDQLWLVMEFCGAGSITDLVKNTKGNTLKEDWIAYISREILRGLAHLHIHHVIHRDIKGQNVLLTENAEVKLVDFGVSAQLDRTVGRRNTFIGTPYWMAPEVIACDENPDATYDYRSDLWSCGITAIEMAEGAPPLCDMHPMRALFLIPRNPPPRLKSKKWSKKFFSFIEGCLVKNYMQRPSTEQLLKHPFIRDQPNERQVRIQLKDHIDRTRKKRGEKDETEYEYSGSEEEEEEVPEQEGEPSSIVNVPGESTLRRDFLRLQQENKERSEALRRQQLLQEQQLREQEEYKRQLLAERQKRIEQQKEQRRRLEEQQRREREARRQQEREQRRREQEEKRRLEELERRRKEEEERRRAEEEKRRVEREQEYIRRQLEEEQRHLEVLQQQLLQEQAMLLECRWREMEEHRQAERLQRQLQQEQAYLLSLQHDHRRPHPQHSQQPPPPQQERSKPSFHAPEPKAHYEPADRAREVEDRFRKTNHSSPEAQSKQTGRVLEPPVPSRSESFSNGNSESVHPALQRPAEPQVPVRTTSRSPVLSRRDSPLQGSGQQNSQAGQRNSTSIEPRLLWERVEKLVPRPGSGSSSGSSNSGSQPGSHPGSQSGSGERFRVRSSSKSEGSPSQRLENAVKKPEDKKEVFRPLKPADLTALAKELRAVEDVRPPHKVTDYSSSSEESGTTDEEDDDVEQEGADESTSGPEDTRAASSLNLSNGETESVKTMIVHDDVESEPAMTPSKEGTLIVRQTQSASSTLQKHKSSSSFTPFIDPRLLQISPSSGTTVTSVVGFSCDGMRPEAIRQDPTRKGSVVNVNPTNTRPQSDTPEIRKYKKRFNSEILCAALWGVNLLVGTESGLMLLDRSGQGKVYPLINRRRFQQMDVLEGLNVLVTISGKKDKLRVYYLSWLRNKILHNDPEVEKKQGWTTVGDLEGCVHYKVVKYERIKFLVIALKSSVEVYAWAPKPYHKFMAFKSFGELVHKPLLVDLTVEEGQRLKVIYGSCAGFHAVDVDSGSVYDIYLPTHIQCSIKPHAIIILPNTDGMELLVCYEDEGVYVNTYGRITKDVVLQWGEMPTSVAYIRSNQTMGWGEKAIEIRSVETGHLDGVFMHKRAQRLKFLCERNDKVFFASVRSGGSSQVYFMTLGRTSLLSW
UniProt P05181, sequence (whole entry, looked up): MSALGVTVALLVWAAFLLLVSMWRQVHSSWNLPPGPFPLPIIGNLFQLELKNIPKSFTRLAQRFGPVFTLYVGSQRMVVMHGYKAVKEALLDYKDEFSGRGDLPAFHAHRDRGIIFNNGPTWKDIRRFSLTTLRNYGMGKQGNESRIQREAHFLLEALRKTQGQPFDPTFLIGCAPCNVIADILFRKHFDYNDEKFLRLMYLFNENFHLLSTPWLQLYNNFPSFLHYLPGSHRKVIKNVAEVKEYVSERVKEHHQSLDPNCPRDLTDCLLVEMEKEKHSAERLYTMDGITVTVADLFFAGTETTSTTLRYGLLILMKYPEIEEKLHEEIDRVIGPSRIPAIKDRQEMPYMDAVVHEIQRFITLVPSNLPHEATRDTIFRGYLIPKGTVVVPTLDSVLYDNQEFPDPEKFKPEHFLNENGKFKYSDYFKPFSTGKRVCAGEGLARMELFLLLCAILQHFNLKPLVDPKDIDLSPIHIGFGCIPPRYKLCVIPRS
UniProt P25101, sequence (whole entry, looked up): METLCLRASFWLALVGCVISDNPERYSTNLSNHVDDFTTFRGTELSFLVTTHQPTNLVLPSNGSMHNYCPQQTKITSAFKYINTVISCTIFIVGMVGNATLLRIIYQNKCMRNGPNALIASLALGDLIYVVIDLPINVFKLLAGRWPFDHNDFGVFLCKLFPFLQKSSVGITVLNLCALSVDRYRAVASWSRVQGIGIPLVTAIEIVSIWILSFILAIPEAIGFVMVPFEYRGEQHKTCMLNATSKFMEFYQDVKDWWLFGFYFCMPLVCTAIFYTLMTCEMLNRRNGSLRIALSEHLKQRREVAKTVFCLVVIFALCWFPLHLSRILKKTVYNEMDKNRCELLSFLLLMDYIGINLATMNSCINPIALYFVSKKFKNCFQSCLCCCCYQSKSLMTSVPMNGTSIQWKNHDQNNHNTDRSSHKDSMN

Structure (SMILES) | tested on | assay | test system | conditions | scale | endpoint | result
[Cl-].[Cl-].[Pt+2].[Ru+2].c1ccc(-c2nc3cc4ccccc4cc3nc2-c2ccccn2)nc1.c1cnc2c(c1)ccc1cccnc12.c1cnc2c(c1)ccc1cccnc12 | Danio rerio | – | embryos | 15 µM, 72 h | – | survival rate | 93.3 ± 2.7%
C[C@H]1CN(c2n[nH]c3nc(N[C@H]4CC[C@H](NS(=O)(=O)CCC(F)(F)F)CC4)ncc23)CCO1 | Mitotic checkpoint protein BUB3 (Homo sapiens, UniProt O43684) | Kinobeads competition, item: BUB3 | – | 0.032 µM, unit not given | reference: vehicle | remaining binding | 1.53
O=C1c2ccccc2C(=O)c2ccccc21 | HK-2 co-cultured with HepaRG | MTT | – | 16.67 µM, 24 h | reference: untreated control | viability | 119 ± 12.6%
COc1cccc(-c2n[nH]c(SCc3ccccn3)n2)c1OC | Salmonella typhimurium | Ames test, preincubation | TA1537 | 1.0 mg/plate, without S9 | – | revertant colonies per plate | 6
Cc1cc2c(c(O)c1O)C(=O)c1c(O)cc(O)cc1C2=O | HK-2 co-cultured with HepaRG | MTT | – | 33.33 µM, 48 h | reference: untreated control | cell viability | 83.5 ± 6.02%
C[C@@H](O)[C@@H](CO)NC(=O)[C@@H](CCCNC(=N)N)NC(=O)[C@@H]1CCCN1C(=O)[C@@H]1CSSC[C@H](NC(=O)[C@H](Cc2ccccc2)NC(=O)CN2CCN(CC(=O)O)CCN(CC(=O)O)CCN(CC(=O)O)CC2)C(=O)N[C@@H](Cc2ccc(O)cc2)C(=O)N[C@@H](Cc2ccccc2)C(=O)N[C@@H](CCC(N)=O)C(=O)N[C@@H](CC(N)=O)C(=O)N1 [gallium-68 labelled] | – | – | Wistar rat, healthy, submandibular gland | intravenous, 8 MBq, 120 min | – | tissue uptake | 0.04 %ID/g
CC(=O)N1CCC(C(=O)N2CCN3C(=O)c4cc(-c5ccccc5)ccc4NC(=O)C3C2)CC1 (stereo not shown) | Escherichia coli | – | WP2 uvrA | 5000 µg/plate, added: rat liver S9 | – | revertants per plate | 34.5
CCOC(=O)c1c(NC(=O)CNC(C)C)sc2c1CCCCC2 | HEK293 | CellTiter-Blue | – | 50 µM | – | viability | 98.5 ± 1%
OC(CCN1CC=C(c2ccc(F)cc2)CC1)c1ccc(F)c2ccccc12 (stereo not shown) | Salmonella typhimurium | SOS response, SOS/umu test | TA1535/pSK1002, TGA medium | 0.000488 mg/mL, 4 h, added: 10% rat liver S9 | reference: untreated | induction factor | 0.7
COc1cc(CCC[P+](c2ccccc2)(c2ccccc2)c2ccccc2)c(OC)c2c1OCO2.[I-] | BT-549 | SRB | – | – | – | LC50 | -4.45 log M
CC(C)CC(=O)OC[C@H]1O[C@@](C#N)(c2ccc3c(N)ncnn23)[C@H](O)[C@@H]1O | Cytochrome P450 2E1 (CYP2E1, Homo sapiens, UniProt P05181) | metabolic stability | recombinant enzyme | 1 µM | – | half-life | > 6.55 h
COc1c(CCC[P+](c2ccccc2)(c2ccccc2)c2ccccc2)cc2c(c1OC)OCO2.[I-] | Hs-578T | SRB | – | – | – | LC50 | > -4 log M
COc1ccc2c(c1OC)C(=O)c1c(cc(C)c(O)c1OC)C2=O | HK-2 co-cultured with HepaRG | MTT | – | 266.67 µM, 48 h | reference: untreated control | cell viability | 38.4 ± 2.24%
O=C(Nc1ccccc1)C1CCN(C(=O)Oc2cccnc2)CC1 | – | adverse event reporting | healthy women | oral, 60 mg, 7 days | – | subjects with Rhinitis adverse event | 0%
COc1cc2ncnc(Nc3cccc(Cl)c3)c2cc1OC | HaCaT | – | – | 33.33 µM, 60 h | – | viability | 26.9% and 14.8% and 13.7%
COc1cccc2c1C(=O)c1c(O)c3c(c(O)c1C2=O)C[C@@](O)(C(=O)CO)C[C@@H]3O[C@H]1C[C@H](NC(=O)[C@@H]2CCCN2C(=O)CNC(=O)[C@H](CC(C)C)NC(=O)[C@H](C)NC(=O)CP(=O)(O)O)[C@H](O)[C@H](C)O1 | – | – | healthy mice, plasma | intravenous, 849.5 mg/kg | – | AUC | 923 µM·h

Structure (SMILES) | tested on | assay | test system | conditions | scale | endpoint | result
CO[C@H]1C[C@@H]2CC[C@@H](C)[C@@](O)(O2)C(=O)C(=O)N2CCCC[C@H]2C(=O)O[C@H]([C@H](C)C[C@@H]2CC[C@@H](OC(=O)NCCOCCOCCOCCOCCOCCOCCOCCOCCC(=O)N3CCc4cc(Cn5nc(-c6ccc7oc(N)nc7c6)c6c(N)ncnc65)ccc4C3)[C@H](OC)C2)C[C@@H](O)[C@H](C)/C=C(\C)[C@@H](O)[C@@H](OC)C(=O)[C@H](C)C[C@H](C)/C=C/C=C/C=C/1C | – | – | patients with advanced solid tumours | intravenous, dose not given, grade ≥3 | – | incidence of Headache TEAE | 0%
CC1(C)[C@H](C(=O)OCc2cccc(Oc3ccccc3)c2)[C@@H]1C=C(Cl)Cl | human cytosolic CES2 | IVIVE from expressed enzymes | human, liver, in vivo scaled | 0.1 µM, age-specific | – | enzyme contribution to CLint | 5.5%
CC[C@H](C)[C@@H]1NC(=O)[C@@H]2CCCN2C(=O)[C@H](CC(C)C)NC(=O)[C@H](CC(C)C)NC(=O)CNC(=O)[C@@H](NC(=O)[C@@H](NC(=O)[C@H](CC(=O)O)NC(=O)CNC(=O)[C@@H](NC(=O)[C@H](C)NC(=O)CNC(=O)[C@H](CCCCN)NC(=O)[C@H](CC(C)C)NC(=O)[C@H](CC(C)C)NC(=O)[C@H](CCCCN)NC(=O)CNC(=O)[C@@H](NC(=O)[C@@H](N)CC(C)C)C(C)C)C(C)C)C(C)C)CSSC[C@@H](C(=O)O)NC1=O | – | RNA-seq, item: Il2rb mRNA | mouse traumatic brain injury, frontal cortex and hippocampus | dose not given | reference: TBI plus compound vs TBI | log2 fold change | -2.16
CN1CCN(c2cc(-c3ccncc3)c(-c3ccc4ccccc4c3)nn2)CC1 | PROKR2 (Homo sapiens, UniProt Q8NFJ6) | agonist, FLIPR | – | 12.5 µM | – | activation | 1.1%
CCc1ccc(CC/C=C/c2ccc3c(c2)C(=O)CC3)cc1 | – | – | Sprague-Dawley rat, male, serum | oral, 120 mg/kg/day, 14 days | – | total bilirubin | 1.62 µM
Cc1cc(C(=O)NC(C)(C)COc2cccc3c2C(N)=NS(=O)(=O)N3)cc(C)n1 | Salmonella typhimurium | Ames test, initial | TA1537 | 1.50 µg/plate, added: rat liver S9 | reference: solvent control | revertant ratio | 0.8
C[C@]1(CO)Cc2ncn(-c3ccc(C#N)c(Cl)c3)c2C(=O)O1 | – | investigator-assessed | human, Chinese | 60 mg single dose | – | subjects with drug-related TEAEs | 0%
COc1cc(Nc2ncc(F)c(Nc3ccc4c(n3)NC(=O)C(C)(C)O4)n2)cc(OC)c1OC | EDNRA (Homo sapiens, UniProt P25101) | – | – | – | – | IC50 | > 10 µM
CC[C@H](C)[C@H](NC(=O)[C@H](Cc1ccccc1)NC(=O)[C@H](CCC(=O)O)NC(=O)[C@H](CCCNC(=N)N)NC(=O)[C@H](C)NC(=O)[C@H](C)NC(=O)[C@H](CCC(N)=O)NC(=O)[C@H](CCC(=O)O)NC(=O)[C@H](CCC(=O)O)NC(=O)[C@H](CC(C)C)NC(=O)[C@H](Cc1ccc(O)cc1)NC(=O)[C@H](CO)NC(=O)[C@H](CO)NC(=O)[C@@H](NC(=O)[C@H](CC(=O)O)NC(=O)[C@H](CO)NC(=O)[C@@H](NC(=O)[C@H](Cc1ccccc1)NC(=O)[C@@H](NC(=O)CNC(=O)[C@H](CCC(=O)O)NC(=O)[C@H](C)NC(=O)CCc1c[nH]cn1)[C@@H](C)O)[C@@H](C)O)C(C)C)C(=O)N[C@@H](C)C(=O)N[C@@H](Cc1c[nH]c2ccccc12)C(=O)N[C@@H](CC(C)C)C(=O)N[C@H](C(=O)N[C@@H](CCCNC(=N)N)C(=O)NCC(=O)N[C@@H](CCCNC(=N)N)C(=O)N[C@@H](CCCCNC(=O)COCCOCCNC(=O)COCCOCCNC(=O)CC[C@H](NC(=O)CCCCCCCCCCCCCCCCC(=O)O)C(=O)O)C(=O)NCC(=O)NCC(=O)N[C@@H](CO)C(=O)N[C@@H](CCCCNc1c(NCCCCCN(O)C(=O)CCC(=O)NCCCCCN(O)C(=O)CCC(=O)NCCCCCN(O)C(C)=O)c(=O)c1=O)C(=O)O)C(C)C [zirconium-89 labelled] | – | – | rat, heart | iv, 3 nmol/kg, 72 h, ex vivo | – | tissue uptake | 0.11 %ID/g
CC(=O)OC[C@H]1O[C@@H](Oc2cc(O)cc3cc4oc(C)cc(=O)c4c(O)c23)[C@H](O)[C@@H](O)[C@@H]1O | HK-2 co-cultured with HepaRG | MTT | – | 133.33 µM, 48 h | reference: untreated control | cell viability | 91.5 ± 9.75%
Cc1ncc2n1-c1ccc(Cl)cc1C(c1ccccc1F)=NC2 | Cytochrome P450 3A4 (CYP3A4, Homo sapiens, UniProt P08684) | – | human, plasma | oral, 2 mg, day 1, alone, arithmetic mean | – | half-life | 3.25 h
O=c1ccc2ccccc2o1 | HepG2 | item: glutathione content | – | 24 h, ATP, GSH, MMP, ROS panel | – | point of departure | 682 µM
COc1cc2c(Oc3ccc4[nH]c(C)cc4c3F)ccnc2cc1OCC1(N)CC1 | – | – | paediatric recurrent refractory sarcoma | 12 mg | – | grade 1 or 2 Hyperthyroidism | 9.1%
CN/C(=N\[N+](=O)[O-])NCc1cnc(Cl)s1 | – | – | soil | 56 days, nominal 3.3 | – | concentration | 1.7 mg/kg dry soil
COc1ccc(N2C(=O)N(c3c(C)cccc3Cl)Cc3cnc(Nc4ccc(C5CCN(C)CC5)cc4OC)nc32)nc1 | MAP4K4 (Homo sapiens, UniProt O95819) | kinase activity | – | 0.5 µM | – | inhibition | 29%

For quick reference, copied from above:
Structure (SMILES) | tested on | assay | test system | conditions | scale | endpoint | result
CCOC(=O)c1c(NC(=O)CNC(C)C)sc2c1CCCCC2 | HEK293 | CellTiter-Blue | – | 50 µM | – | viability | 98.5 ± 1%
OC(CCN1CC=C(c2ccc(F)cc2)CC1)c1ccc(F)c2ccccc12 (stereo not shown) | Salmonella typhimurium | SOS response, SOS/umu test | TA1535/pSK1002, TGA medium | 0.000488 mg/mL, 4 h, added: 10% rat liver S9 | reference: untreated | induction factor | 0.7
COc1cc(CCC[P+](c2ccccc2)(c2ccccc2)c2ccccc2)c(OC)c2c1OCO2.[I-] | BT-549 | SRB | – | – | – | LC50 | -4.45 log M
CC(C)CC(=O)OC[C@H]1O[C@@](C#N)(c2ccc3c(N)ncnn23)[C@H](O)[C@@H]1O | Cytochrome P450 2E1 (CYP2E1, Homo sapiens, UniProt P05181) | metabolic stability | recombinant enzyme | 1 µM | – | half-life | > 6.55 h
